Measured values gathered from unrelated publications.
Compare with care: the assays were run in different laboratories. Numbers after ± are the reported error.
Organism: Salmonella typhimurium

SMILES	test	system	conditions	scale	measurement	value
O=[N+]([O-])c1ccc(N2CCC(NCCC(O)c3ccc(F)c4ccccc34)CC2)c(C(F)(F)F)c1 (stereo not drawn)	SOS/umu test	TA1535/pSK1002	0.008 mg/mL, 4 h, without S9, full range	–	survival	50%
CC(C)N(N=O)C(C)C	mutagenicity, Ames plate incorporation	TA100	5000 µg/plate, without S9, methanol	–	revertant colonies per plate	165 ± 25
Cc1cc(C(=O)NC(C)(C)COc2cccc3c2C(N)=NS(=O)(=O)N3)cc(C)n1	Ames test, confirmatory	TA1535	3333 µg/plate, with: rat liver S9	relative to: solvent control	revertant ratio	0.9
COc1cccc(-c2n[nH]c(SCc3ccccn3)n2)c1OC	Ames test, plate incorporation	TA1537	0.25 mg/plate, with rat liver S9	–	revertant colonies per plate	18
CC(C)N(C)N=O	mutagenicity, Ames plate incorporation	TA1537	50 µg/plate, 3 d, without S9, methanol	–	revertant colonies per plate	6.7 ± 3
O=[N+]([O-])c1ccc(NC2CCNCC2)c(C(F)(F)F)c1	SOS/umu test	TA1535/pSK1002	0.016 mg/mL, 4 h, with S9, full range	–	survival	102%
CNC(=O)c1c(N(C)N=O)ncn1C	mutagenicity, Ames plate incorporation	TA98	1500 µg/plate, without S9, methanol	–	revertant colonies per plate	22 ± 8
O=[N+]([O-])c1ccc(N2CCN(CCC(O)c3ccc(F)cc3)CC2)c(C(F)(F)F)c1 (stereo not drawn)	SOS/umu test	TA1535/pSK1002, TGA medium	0.001 mg/mL, 4 h, with: rat liver S9	–	survival	86.1%
CC(=O)N1CCC(C(=O)N2CCN3C(=O)c4cc(-c5ccccc5)ccc4NC(=O)C3C2)CC1 (stereo not drawn)	–	TA1537	5.0 µg/plate, with: rat liver S9	–	revertants per plate	20

Repeated from above:
SMILES	test	system	conditions	scale	measurement	value
CC(C)N(N=O)C(C)C	mutagenicity, Ames plate incorporation	TA100	5000 µg/plate, without S9, methanol	–	revertant colonies per plate	165 ± 25
